Assay results from different studies.
Every numbered part comes from another study and shows a few of its results, in no order.

Study 1 — method: protein binding microarray; molecule type: double-stranded DNA, one strand shown; medium: in vitro; concentration: not given; relative to: not given; reading: higher = stronger binding
Target: Histone acetyltransferase KAT6A, winged helix 1, GST fusion (KAT6A, Homo sapiens, UniProt Q92794, residues 1-85)
Notes: 8-mer, flanks averaged, mean of 2 arrays, mostly near background
Construct (chain): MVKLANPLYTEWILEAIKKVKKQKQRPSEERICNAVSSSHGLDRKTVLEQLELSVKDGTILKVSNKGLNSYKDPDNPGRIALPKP
Sequence	E-score
ACATCTGA	-0.0627
CTCCCACA	-0.115
AAGTCGCT	0.0254
ATTTTATC	-0.0532

Study 2 — method: protein-binding microarray; molecule type: double-stranded DNA, one strand shown; medium: in vitro; concentration: 2200 nM top; notes: 60-bp whole probe; added: salmon DNA 0.4 mg/ml; relative to: random background probes; reading: higher = stronger binding
Target: Interferon regulatory factor 7, full length, phosphomimetic (IRF7, Homo sapiens, UniProt Q92985, residues 1-503, S471D/S472D/S475D/S476D/S477D/S483D/S484D/S487D)
UniProt Q92985, sequence (whole entry, unmodified, looked up): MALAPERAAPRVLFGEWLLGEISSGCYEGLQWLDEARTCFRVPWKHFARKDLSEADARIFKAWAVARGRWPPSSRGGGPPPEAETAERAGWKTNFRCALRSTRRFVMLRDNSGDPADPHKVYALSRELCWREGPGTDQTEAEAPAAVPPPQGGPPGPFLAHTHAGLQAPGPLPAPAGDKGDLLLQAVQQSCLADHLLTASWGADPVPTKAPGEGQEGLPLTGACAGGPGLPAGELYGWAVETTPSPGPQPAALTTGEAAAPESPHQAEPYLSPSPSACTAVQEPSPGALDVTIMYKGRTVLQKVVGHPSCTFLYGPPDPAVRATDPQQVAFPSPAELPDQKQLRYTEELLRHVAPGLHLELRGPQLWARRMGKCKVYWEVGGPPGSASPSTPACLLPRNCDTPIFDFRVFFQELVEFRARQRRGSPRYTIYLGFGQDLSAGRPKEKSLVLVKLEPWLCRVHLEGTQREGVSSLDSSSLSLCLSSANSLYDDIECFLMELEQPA
Sequence	fitted relative affinity
GCCTAGCACGTAGGTATCGGACTGGGTTAGTGCTAGGTCTTGATTCGCTTGACGCTGCTG	-0.106 z-score
GCCTAGCACTTAGGACTGCTACTGCCTTAGTGCTAGGTCTTGATTCGCTTGACGCTGCTG	-0.288 z-score
GCCTAGCACGACGGACTGGGTTCCGGGACGTGCTAGGTCTTGATTCGCTTGACGCTGCTG	-0.821 z-score
GCCTAGCACGATGGTATCGGTATCGGGACGTGCTAGGTCTTGATTCGCTTGACGCTGCTG	0.325 z-score

Study 3 — method: universal PBM; molecule type: double-stranded DNA, one strand shown; medium: in vitro; concentration: 600 nM; reading: higher = stronger binding
Target: Sal-like protein 4, full length isoform A (SALL4, Homo sapiens, UniProt Q9UJQ4, residues 1-1053)
UniProt Q9UJQ4, sequence (whole entry, looked up): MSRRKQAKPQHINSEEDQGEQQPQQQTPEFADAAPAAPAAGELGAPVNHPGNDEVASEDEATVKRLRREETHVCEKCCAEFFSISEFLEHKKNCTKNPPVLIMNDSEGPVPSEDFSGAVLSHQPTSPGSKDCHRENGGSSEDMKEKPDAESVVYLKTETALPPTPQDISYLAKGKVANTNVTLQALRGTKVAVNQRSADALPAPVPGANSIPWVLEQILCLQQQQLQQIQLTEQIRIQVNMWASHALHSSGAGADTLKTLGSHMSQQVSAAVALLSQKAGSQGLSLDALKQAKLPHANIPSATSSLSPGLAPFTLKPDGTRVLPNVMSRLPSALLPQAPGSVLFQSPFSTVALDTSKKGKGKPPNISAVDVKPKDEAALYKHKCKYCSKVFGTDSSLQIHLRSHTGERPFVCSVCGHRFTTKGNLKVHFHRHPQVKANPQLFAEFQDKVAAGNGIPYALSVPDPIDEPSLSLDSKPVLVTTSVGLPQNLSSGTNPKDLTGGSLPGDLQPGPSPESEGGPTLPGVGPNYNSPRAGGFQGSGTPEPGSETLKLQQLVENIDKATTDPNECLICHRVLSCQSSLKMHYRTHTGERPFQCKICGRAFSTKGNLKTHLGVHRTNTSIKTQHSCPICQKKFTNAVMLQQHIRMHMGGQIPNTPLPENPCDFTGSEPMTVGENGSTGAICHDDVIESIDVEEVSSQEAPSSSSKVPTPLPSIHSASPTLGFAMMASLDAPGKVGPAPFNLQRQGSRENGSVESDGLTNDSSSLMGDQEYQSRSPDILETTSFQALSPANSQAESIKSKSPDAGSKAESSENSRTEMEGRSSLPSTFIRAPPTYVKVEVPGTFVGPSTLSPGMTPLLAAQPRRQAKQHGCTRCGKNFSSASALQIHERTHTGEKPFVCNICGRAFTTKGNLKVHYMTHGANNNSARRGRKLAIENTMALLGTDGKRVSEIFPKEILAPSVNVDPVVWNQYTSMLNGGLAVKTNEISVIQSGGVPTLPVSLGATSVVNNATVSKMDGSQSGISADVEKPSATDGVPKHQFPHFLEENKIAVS
Notes: 8-mer, flanks averaged, mean of replicates
Sequence	E-score
AAAAGTGA	0.258
GCTTGCCA	-0.0407
GAGAAGTA	0.16
AATGTCCA	0.0791
GAAGTGTC	-0.0539
CATCCGCC	-0.197

Other studies, line by line
Substance	target	test	test system	conditions	scale	quantity	result
PhoQ, residues 284 288 289 292 302 303 SLSLLA	PhoP, residues 12 14 15 18 19 HLGGL (Escherichia coli, UniProt P23836)	Sort-seq, item: YFP reporter	E. coli	PhoQ-PhoP variant library, added: 10 µM Mg2+	relative to: high Mg2+ state, higher = stronger signaling	fold induction	22.7
